Measured values gathered from unrelated publications.
Lines come from different studies, so protocols differ.
Chain of UniProt P07949 (whole entry, unmodified, looked up): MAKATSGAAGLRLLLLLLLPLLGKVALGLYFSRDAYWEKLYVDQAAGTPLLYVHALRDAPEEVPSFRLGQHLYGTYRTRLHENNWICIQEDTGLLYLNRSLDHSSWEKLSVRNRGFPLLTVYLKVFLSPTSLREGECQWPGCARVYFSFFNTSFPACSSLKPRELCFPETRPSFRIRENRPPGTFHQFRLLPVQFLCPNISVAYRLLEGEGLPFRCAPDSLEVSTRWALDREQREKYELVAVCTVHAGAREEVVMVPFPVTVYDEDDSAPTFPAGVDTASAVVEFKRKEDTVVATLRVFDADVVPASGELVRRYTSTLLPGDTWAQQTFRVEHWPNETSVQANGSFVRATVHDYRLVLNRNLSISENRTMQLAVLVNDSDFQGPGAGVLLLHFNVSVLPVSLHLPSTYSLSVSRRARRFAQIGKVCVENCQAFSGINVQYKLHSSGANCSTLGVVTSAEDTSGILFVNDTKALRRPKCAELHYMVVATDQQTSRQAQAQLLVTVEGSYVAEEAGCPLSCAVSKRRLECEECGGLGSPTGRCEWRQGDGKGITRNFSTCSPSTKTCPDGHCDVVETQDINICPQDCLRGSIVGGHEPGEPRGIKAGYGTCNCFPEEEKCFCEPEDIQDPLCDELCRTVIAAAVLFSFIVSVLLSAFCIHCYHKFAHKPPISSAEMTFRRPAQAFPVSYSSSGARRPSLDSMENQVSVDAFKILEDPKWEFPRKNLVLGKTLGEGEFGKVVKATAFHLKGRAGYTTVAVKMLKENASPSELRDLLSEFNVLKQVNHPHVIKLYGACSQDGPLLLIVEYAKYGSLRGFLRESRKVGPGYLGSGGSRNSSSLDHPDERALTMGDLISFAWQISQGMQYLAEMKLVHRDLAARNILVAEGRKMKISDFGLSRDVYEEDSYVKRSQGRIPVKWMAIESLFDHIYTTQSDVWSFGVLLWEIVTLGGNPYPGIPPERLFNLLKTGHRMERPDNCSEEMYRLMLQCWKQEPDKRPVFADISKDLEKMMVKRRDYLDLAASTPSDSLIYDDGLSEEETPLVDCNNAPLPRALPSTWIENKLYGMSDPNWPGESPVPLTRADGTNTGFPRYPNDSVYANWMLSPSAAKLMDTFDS
Chain of UniProt O43781 (whole entry, looked up): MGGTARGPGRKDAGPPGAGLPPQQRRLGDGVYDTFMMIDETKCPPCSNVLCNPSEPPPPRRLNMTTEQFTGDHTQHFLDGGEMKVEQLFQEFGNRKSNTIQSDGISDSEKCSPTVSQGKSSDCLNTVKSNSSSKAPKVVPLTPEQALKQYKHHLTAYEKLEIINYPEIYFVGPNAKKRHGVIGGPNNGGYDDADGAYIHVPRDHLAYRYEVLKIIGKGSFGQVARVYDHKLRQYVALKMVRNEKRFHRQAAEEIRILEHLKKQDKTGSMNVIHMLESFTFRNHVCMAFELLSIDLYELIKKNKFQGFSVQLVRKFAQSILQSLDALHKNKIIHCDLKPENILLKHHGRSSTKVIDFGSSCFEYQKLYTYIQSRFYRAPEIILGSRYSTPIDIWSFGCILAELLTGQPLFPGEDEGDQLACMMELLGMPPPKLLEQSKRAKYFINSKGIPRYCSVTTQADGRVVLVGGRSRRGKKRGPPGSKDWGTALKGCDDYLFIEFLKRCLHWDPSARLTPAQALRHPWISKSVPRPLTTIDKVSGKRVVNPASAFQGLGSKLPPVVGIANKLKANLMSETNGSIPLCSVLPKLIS
Chain of UniProt P49137 (whole entry, looked up): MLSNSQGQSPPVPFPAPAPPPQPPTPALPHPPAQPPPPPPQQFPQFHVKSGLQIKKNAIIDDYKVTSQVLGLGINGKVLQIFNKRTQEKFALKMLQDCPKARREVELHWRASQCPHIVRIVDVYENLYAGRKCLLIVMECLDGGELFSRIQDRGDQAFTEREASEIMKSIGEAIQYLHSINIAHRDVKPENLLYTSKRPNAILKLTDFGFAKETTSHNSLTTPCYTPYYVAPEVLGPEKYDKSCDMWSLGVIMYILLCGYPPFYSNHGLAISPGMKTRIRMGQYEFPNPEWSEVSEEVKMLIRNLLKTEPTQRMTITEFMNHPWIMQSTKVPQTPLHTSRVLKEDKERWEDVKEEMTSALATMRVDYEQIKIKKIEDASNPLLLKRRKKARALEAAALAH
Chain of UniProt P48730 (whole entry, looked up): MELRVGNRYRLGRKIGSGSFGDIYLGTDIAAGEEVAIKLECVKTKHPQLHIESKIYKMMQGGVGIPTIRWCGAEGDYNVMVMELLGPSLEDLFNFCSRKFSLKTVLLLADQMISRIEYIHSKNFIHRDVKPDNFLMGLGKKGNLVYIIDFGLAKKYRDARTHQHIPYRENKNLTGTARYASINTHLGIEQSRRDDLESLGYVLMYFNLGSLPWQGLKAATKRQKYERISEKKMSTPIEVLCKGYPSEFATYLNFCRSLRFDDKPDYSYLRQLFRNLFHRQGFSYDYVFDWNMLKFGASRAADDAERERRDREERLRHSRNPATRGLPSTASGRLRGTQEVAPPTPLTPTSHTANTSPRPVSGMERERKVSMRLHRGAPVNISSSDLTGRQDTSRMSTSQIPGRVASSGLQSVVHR

SMILES	target	observed	mode	method	concentration	quantity	result
COc1cc(-c2cncc3c2CN(C)Cc2cc(N4CCNCC4)ccc2-3)cc(OC)c1OC	CSNK1D (Homo sapiens, UniProt P48730)	enzyme activity	inhibitor	–	1 µM	remaining activity	107%
CNc1ncc2c(/C=C/C(=O)N3CCC(OC)CC3)nn(Cc3cccc(C(F)(F)F)c3)c2n1	DYRK3 (Homo sapiens, UniProt O43781)	enzyme activity	inhibitor	radiometric	1 µM	remaining activity	115%
Cc1cc([C@@H](C)Nc2ccccc2C(=O)O)c2nc(N3CCC(F)(F)CC3)c(C#N)c(=O)n2c1	MAPKAPK2 (Homo sapiens, UniProt P49137)	binding	–	competition with immobilised ligand	10 µM	remaining binding	67%
C=CC(=O)N1CCC(COCC(=O)N2CCN(c3nc(-c4cnc(N)nc4C(F)F)nc(N4CCOC[C@@H]4C)n3)CC2)CC1	RET (Homo sapiens, UniProt P07949, V804L)	binding	–	competition with immobilised ligand	1 µM	remaining binding	82%

Excerpt of the above:
SMILES	target	observed	mode	method	concentration	quantity	result
COc1cc(-c2cncc3c2CN(C)Cc2cc(N4CCNCC4)ccc2-3)cc(OC)c1OC	CSNK1D (Homo sapiens, UniProt P48730)	enzyme activity	inhibitor	–	1 µM	remaining activity	107%
